Measured values of several laboratories.
Lines come from different studies, so protocols differ.
GBA1 R534H: Lysosomal acid glucosylceramidase (GBA1, Homo sapiens, UniProt P04062, R534H)
CFTR del508-508: Cystic fibrosis transmembrane conductance regulator (CFTR, Homo sapiens, UniProt P13569, del508-508)

Structure (SMILES) = OC[C@@H]1[C@@H](O)[C@H](O)[C@@H](O)CN1CCCCCOCc1ccc(-c2ccncc2)cc1; target = GBA1 R534H; test = inhibitor, 4MU-β-D-glucopyranoside; conditions = together with: 4MU-β-D-glucopyranoside; endpoint = IC50; value = 2000 nM
Structure (SMILES) = CNc1ncnc2c1ncn2C1OC(CO)C(O)C1O (stereo not shown); target = ADORA3 (Homo sapiens, UniProt P0DMS8, M174Y); test = G protein activation, agonist; endpoint = EC50; value = 1800 nM
Structure (SMILES) = O=C(O)CCC(=O)O; target = Sucnr1 (Mus musculus, UniProt Q99MT6); test = inositol phosphate, agonist; endpoint = EC50; value = 4590 nM
Structure (SMILES) = COc1cc(C2C(NC(=O)c3ccc(NC(=O)OC(C)(C)C)cc3)(C(=O)O)C(c3ccc(OC(=O)c4cccs4)c(OC)c3)C2(NC(=O)c2ccc(NC(=O)OC(C)(C)C)cc2)C(=O)O)ccc1OC(=O)c1cccs1 (stereo not shown); target = GLP1R (Homo sapiens, UniProt P43220, R299A); test = cAMP, agonist; endpoint = EC50; value = 105 nM
Structure (SMILES) = O=C(Cc1ccc(OCc2ccccc2)cc1)NC1(C(=O)O)CCN(C(=O)c2ccc(-c3cccc(Cl)c3)cc2)CC1; target = AGTR1 (Homo sapiens, UniProt P30556); test = reporter gene, agonist, luciferase; endpoint = EC50; value = > 10000 nM
Structure (SMILES) = CCOC(=O)c1c(S(=O)(=O)Nc2ccc(C(F)(F)F)cc2)c(-c2ccccc2)n(-c2ccccc2)c1C; target = CFTR del508-508; test = plasma membrane density, corrector, PM-ELISA; endpoint = EC50; value = 710 nM
Structure (SMILES) = OC[C@H]1[C@@H](O)[C@H](O)[C@@H](O)CN1CCCCCOCc1ccccc1-c1ccccc1; target = GBA1 R534H; test = inhibitor, 4MU-β-D-glucopyranoside; conditions = together with: 4MU-β-D-glucopyranoside; endpoint = IC50; value = 15000 nM
Structure (SMILES) = CCN(CC)C(CO)c1cccc2c(C)c(C)oc12 (stereo not shown); target = LPAR1 (Homo sapiens, UniProt Q92633, W210A); test = G-protein dissociation, agonist, NanoBiT; test system = human cells; endpoint = EC50; value = 49.5 nM
Structure (SMILES) = COc1ccc(C2(C(=O)N3CCC(Nc4nc5ccccc5c(=O)[nH]4)CC3)CC2)cc1; target = MRGPRD (Homo sapiens, UniProt Q8TDS7); test = miniGq recruitment, agonist, BRET1; test system = HEK293T; conditions = wild-type receptor; endpoint = EC50; value = 240 nM
Structure (SMILES) = COc1ccc(C(=O)c2c(C(=O)NCCCN(C)C)oc3ccc(Cl)cc3c2=O)cc1OC; target = GHSR (Homo sapiens, UniProt Q92847); test = G protein activation, agonist, BRET; endpoint = EC50; value = 56.2 nM
Structure (SMILES) = Cc1nn(-c2cccc(N)c2)c(=O)c2cnc(Nc3ccc(N4CCNCC4)cc3)nc12; target = AKT2 (Homo sapiens, UniProt P31751); test = SelectScreen kinase; endpoint = IC50; value = > 10000 nM
Structure (SMILES) = CCOC(=O)c1c(S(=O)(=O)Nc2ccc([N+](=O)[O-])cc2)c(-c2ccccc2)n(-c2ccccc2)c1C; target = CFTR del508-508; test = plasma membrane density, corrector, PM-ELISA; endpoint = EC50; value = 2340 nM
Structure (SMILES) = CC(C)Oc1cc(Cl)ccc1CNc1cc(-c2ccccc2)nc2ncnn12; target = GPR3 (Homo sapiens, UniProt P46089, L128A); test = cAMP level, agonist; conditions = FLAG-6xHis tagged; endpoint = EC50; value = 37.2 nM
Structure (SMILES) = Cc1cc(=O)[nH]c(-n2nc(-c3cccs3)cc2NC(=O)C2(c3ccc(Cl)cc3)CCCC2)n1; target = CFTR del508-508; test = ion flux, activator; endpoint = EC50; value = 3110 nM
Structure (SMILES) = Cl.[Cl][Ru-4]123([n+]4ccccc4-c4cccc([n+]41)-c1cccc[n+]12)[n+]1ccc(-c2ccccc2)c2ccc4c(-c5ccccc5)cc[n+]3c4c21; target = DNA gyrase (gyrA/gyrB, Escherichia coli, UniProt P0AES4+P0AES6); test = supercoiling inhibition; endpoint = EC50; value = 35100 nM
Structure (SMILES) = CSCC[C@H](NC(=O)[C@H](CC(C)C)NC(=O)CNC(=O)[C@H](Cc1ccccc1)NC(=O)[C@H](Cc1ccccc1)NC(=O)[C@@H](N)CCC(N)=O)C(N)=O; target = TACR1 (Homo sapiens, UniProt P25103, Y287H); test = agonist; conditions = concentration not given; endpoint = EC50; value = 501 nM

A few entries again:
Structure (SMILES) = OC[C@@H]1[C@@H](O)[C@H](O)[C@@H](O)CN1CCCCCOCc1ccc(-c2ccncc2)cc1; target = GBA1 R534H; test = inhibitor, 4MU-β-D-glucopyranoside; conditions = together with: 4MU-β-D-glucopyranoside; endpoint = IC50; value = 2000 nM
Structure (SMILES) = CNc1ncnc2c1ncn2C1OC(CO)C(O)C1O (stereo not shown); target = ADORA3 (Homo sapiens, UniProt P0DMS8, M174Y); test = G protein activation, agonist; endpoint = EC50; value = 1800 nM
